# Assay results of several laboratories.
# Every numbered part comes from another study and shows a few of its results, in no order. Changes are numbered by the printed parent chain.

# Series 1
# Target: Prothrombin, mature alpha-thrombin (F2, Homo sapiens, UniProt P00734)
# Technique: aptamer microarray, sandwich
# Form: DNA with 2'F-ANA
# Matrix: in vitro
# Tested at: 200 nM
# Notes: whole 15-mer aptamer, many near background
# Together with: Cy3 exosite-II aptamer, 400 nM
# Direction: higher = stronger binding
# Strand: GGTTGGTGTGGTTGG
Modification,mean fluorescence intensity
2'F-ANA at 3 4 5 6 7 9 11 12 14 15,98.3 a.u.
2'F-ANA at 1 3 5 7 8 10 11 12 13 14,48.9 a.u.
2'F-ANA at 1 3 4 7 8 10 11 12 14,52.3 a.u.
2'F-ANA at 1 2 3 5 6 7 9 10 11,52.4 a.u.
2'F-ANA at 4 8 9 12 13 14,90.3 a.u.
2'F-ANA at 1 2 3 5 7 8 9 10 13 15,48.4 a.u.
2'F-ANA at 3 4 6 7 15,668 a.u.
2'F-ANA at 1 3 7 9 10 11 13 14 15,61.8 a.u.

# Series 2
# Target: CCNE2, cyclin fold, Cln2 fusion (human)
# Technique: yeast growth competition, sequencing
# Matrix: yeast
# Notes: strong parent motif
# Reference: not given
# Direction: higher = stronger binding
# Parent: BRCA2 docking peptide (human); PSIKRNLLNEFDR; partner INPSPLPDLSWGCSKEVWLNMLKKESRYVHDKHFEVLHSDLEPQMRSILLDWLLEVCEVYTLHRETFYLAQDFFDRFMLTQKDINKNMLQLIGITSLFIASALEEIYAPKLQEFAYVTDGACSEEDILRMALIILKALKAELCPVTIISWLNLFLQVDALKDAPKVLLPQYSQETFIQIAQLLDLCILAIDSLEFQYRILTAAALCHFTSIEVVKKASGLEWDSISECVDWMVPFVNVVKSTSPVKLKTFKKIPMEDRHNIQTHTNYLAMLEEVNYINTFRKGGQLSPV
Variant,normalised enrichment score
PSIKRNLLDEFDR [N9D],1.67
PSIKQNLLNEFDR [R5Q],-0.0607
PKIKRNLLNEFDR [S2K],1.37
PSIKRNLLLEFDR [N9L],2.39
PSIKRNLMNEFDR [L8M],2.75
PSIKRNLDNEFDR [L8D],-0.138
PNIKRNLLNEFDR [S2N],1.38

# Series 3
# Target: RNA binding protein fox-1 homolog 2, RRM domain, GST-SBP tag (RBFOX2, Homo sapiens, UniProt O43251-10, residues 100-194)
# Technique: RNA Bind-n-Seq
# Form: RNA
# Matrix: in vitro
# Tested at: 365 nM
# Notes: natural RNA segment, single round, ends assumed
# Reference: no-protein control
# Direction: higher = stronger binding
# Construct (chain): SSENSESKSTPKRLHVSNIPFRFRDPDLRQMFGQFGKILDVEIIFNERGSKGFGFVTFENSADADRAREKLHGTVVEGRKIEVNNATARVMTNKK
Strand,RBNS enrichment (R)
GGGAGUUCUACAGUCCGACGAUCCGAGAGACGCAUCAUCGAGACCCCCCCACACCGCUACUAGGCCUACACCUCUCCCCACGCAGAGGGGGAAUUCUGCCCUGGUGAAACAGACACUCCAGACAUGGGAGAAGUGGAAUUCUCGGGUGCCAA,0.349
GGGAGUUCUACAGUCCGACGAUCGAGAAAGCAUGUCAGGACAGAGCUGUUGGAUUGGCUUUGAUAGAGGAAUGGGGAUGAUGUAAGUUUACAGUAUUCCUGGGGUUUAAUUGUUGUGCAGUUUCAUAGAUGGGUGGAAUUCUCGGGUGCCAA,6.46
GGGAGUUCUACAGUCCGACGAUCACAUAAUUGACUUUUUCCAACAAAAUGUAUAUUAUUACAUGUUAGAUAAUAAGAACAAUUGUCCCGUGAAUGAUUCUAUGAAGCUAUGCAUCUUAGACCUCUUGAGCUGUUGGAAUUCUCGGGUGCCAA,0.609
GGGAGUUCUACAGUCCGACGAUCAAAAUGUGGAUAGAUACUGUGAAGCUGCUCGCUCAGAAAUACAAGUUCUGGAACAUCUGAAUACAACAGACCCCAACAGUACUUGCCGCUGUGUCCAGAUGUUGGAAUGGUGGAAUUCUCGGGUGCCAA,0.421
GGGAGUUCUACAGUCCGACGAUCGAAUCUGCAACCUGAUUGAUUAUAUAAAAAUACAUGCAAAUAACAAGAUUUUCUUACCUCUCAGUUGUUGAAACACUUUGCUUCUUAAAAUUGAUAUGUUGAAACUUUAAUGGAAUUCUCGGGUGCCAA,0.417
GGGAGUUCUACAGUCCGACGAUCGAGGGAGAUGGCACACGGGGCUCAGCCCUGUUGGGAAACUGGUGUGGAGACCCUUAAAUCCACACUGUGCUCCAAAACUCCCUCUGCUGAUACUCCUUGGAGACACCCUCUGGAAUUCUCGGGUGCCAA,0.408
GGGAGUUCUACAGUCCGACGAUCAGGGAAAUAGAAGCCCGUUCUUUCUUACUGCCCCUGGAGGGAGCAUGGCGCUAGGGCUCUCAGCCUCCUAGAAGGAAGGGACUAAGGAGACGGGCACAGACUUGCGUCAUUGGAAUUCUCGGGUGCCAA,1.16
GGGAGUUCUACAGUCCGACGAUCGGGUCCUUUUCCUUCACCAGCAGUGGGAUAUUCGGAACAGAACCUCCUGCUUUCUGCCCAAGAGUGUGUGUAUGAGGUAAAUCUGUGGCAUAAUGUACCAUUGGCUCACAUGGAAUUCUCGGGUGCCAA,0.37

# Mixed results
Substance,target,assay,system,setting,scale,measurement,value
"PhoQ, residues 284 288 289 292 302 303 SCCLKL","PhoP, residues 12 14 15 18 19 YHFSH (Escherichia coli, UniProt P23836)","Sort-seq, refers to: YFP reporter",E. coli,"PhoQ-PhoP variant library, together with: 10 µM Mg2+","reference: high Mg2+ state, higher = stronger signaling",fold induction,1.14

# Repeated from above (series 1):
Modification,mean fluorescence intensity
2'F-ANA at 4 8 9 12 13 14,90.3 a.u.
2'F-ANA at 1 2 3 5 7 8 9 10 13 15,48.4 a.u.
2'F-ANA at 3 4 6 7 15,668 a.u.
2'F-ANA at 1 3 7 9 10 11 13 14 15,61.8 a.u.
